Experimental data from different studies.
Parts stem from different laboratories: compare values within a part only.

Sample 1
Target: Ras GTPase-activating protein-binding protein 1, full length (G3BP1, Homo sapiens, UniProt Q13283)
Sequence of UniProt Q13283 (whole entry, looked up): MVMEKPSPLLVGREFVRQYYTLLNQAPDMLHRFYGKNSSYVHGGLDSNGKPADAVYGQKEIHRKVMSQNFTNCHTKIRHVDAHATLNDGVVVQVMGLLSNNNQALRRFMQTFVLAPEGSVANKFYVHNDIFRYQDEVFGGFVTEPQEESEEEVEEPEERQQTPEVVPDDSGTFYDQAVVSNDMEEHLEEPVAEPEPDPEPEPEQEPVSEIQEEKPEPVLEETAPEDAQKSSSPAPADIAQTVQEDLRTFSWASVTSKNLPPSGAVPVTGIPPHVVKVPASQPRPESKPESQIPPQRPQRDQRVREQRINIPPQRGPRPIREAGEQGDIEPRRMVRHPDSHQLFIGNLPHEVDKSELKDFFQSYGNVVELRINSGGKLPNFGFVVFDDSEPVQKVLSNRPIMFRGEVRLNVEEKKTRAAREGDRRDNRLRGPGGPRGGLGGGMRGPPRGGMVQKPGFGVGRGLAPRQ
Technique: RNA Bind-n-Seq
Molecule type: RNA
Medium: in vitro
Tested at: 200 nM
Notes: whole 134-nt RNA, ends assumed
With: 150 mM KCl
Baseline: input library
Reading: higher = stronger binding
Measurement: log2 enrichment
All sequences stand within: GGGAGUUCUACAGUCCGACGAUC … UGGAAUUCUCGGGUGUCAAGG
AGUCCUGUGCUACACAUCGUAUGUACCGAAUCGGGGUUUGGGGUGGGGUUUUUGGGGAAAGUAUUAUGUUACGCCGUUCGGAUCUGCACU: 0.334
ACCAUGCAAAAGGGCAUCUUUGGGAAGUGGGGCAAGGGGGGGAUAGGGAGGGGGGUAACACUUUGGGAACAGGUGGUCCCAGGUCGUUUC: 1.06
UCAAGUCCUGUGCUACACAUCGUAUGUACCGAAUCGGAAAGGAGGUUUUUUUGGAAAGUAUUAUGUUACGCCGUUCGGAUCUGCACUUCC: -0.991
UCCUGUGCUACACAUCGUAUGUACCGAAUCGGGGAAAGGGGAAAAAGGGGAAAAAGGGGAAAGUAUUAUGUUACGCCGUUCGGAUCUGCA: 0.596
GUCCUGUGCUACACAUCGUAUGUACCGAAUCGGCCCCCGGGCCCCCGGGCCCCCGGGGAAAGUAUUAUGUUACGCCGUUCGGAUCUGCAC: -0.823
GCAGGAAGUAAAAACAAAUGGAAAUGCUUCGGAUAGUGGCACGGGUGGGGGUUGCUAAGGAAAGGGUGGGAUGGGAGUGGGUAAAGAGUU: 0.867
ACCAUGAAGGUGGGCAUCUUUGGGAAGUGGGGCAAGGGGGGGAUAGGGAGGGGGGUAACACUUUGGGAACAGGUGGUCCCAGGUCGUUUC: 1.27
CCUCAAGUCCUGUGCUACACAUCGUAUGUACCGAAUCGGCGGCGGGGCGGGGAAAGUAUUAUGUUACGCCGUUCGGAUCUGCACUUCCAG: 0.378
GCAGGAAGUAAAAACAAAUGGAAAUGCUUCGGAUAGUGGCAGGGGUGGGGGUUGCUAGGGAAAGGGUGGGAUGGGAGUGGGUAAAGAGUU: 1
UGGCCCUGGUGGCAUGCGGGGAGGAAGAGGUGGCCUCAUGGAUCGUGGGGGUCCCGGUGGAAUGUUCAGAGGUGGCCGUGGUGGAGACAG: 0.396
AGUCCUGUGCUACACAUCGUAUGUACCGAAUCGGGGUUUUGGGUUUUGGGUUUUGGGGAAAGUAUUAUGUUACGCCGUUCGGAUCUGCAC: 0.116
CACAGACAACACGCACCCACACAGAAAAAGAGGGAAGGGGUUGGGAUGGGGACAGGGUGCACAGCAGGGCGGGGUAGGACCCCAGCCCCU: 1.84
UAUCUUUAGAGGAGGAUCUGAUGGAUAUGGCAGUGGACGUGGAUUUGGGGAUGGCUAUAAUGGGUAUGGAGGAGGACCUGGAGGUGGCAA: 0.307
CUGUGCUACACAUCGUAUGUACCGAAUCGGGAAAAAAAGGGAAAAAAAGGGAAAAAAAGGGAAAGUAUUAUGUUACGCCGUUCGGAUCUG: -0.893

Sample 2
Target: Centromere-binding protein 1, full length, N-terminal tag (CBF1, Saccharomyces cerevisiae, UniProt P17106, residues 1-351)
Sequence of UniProt P17106 (whole entry, looked up): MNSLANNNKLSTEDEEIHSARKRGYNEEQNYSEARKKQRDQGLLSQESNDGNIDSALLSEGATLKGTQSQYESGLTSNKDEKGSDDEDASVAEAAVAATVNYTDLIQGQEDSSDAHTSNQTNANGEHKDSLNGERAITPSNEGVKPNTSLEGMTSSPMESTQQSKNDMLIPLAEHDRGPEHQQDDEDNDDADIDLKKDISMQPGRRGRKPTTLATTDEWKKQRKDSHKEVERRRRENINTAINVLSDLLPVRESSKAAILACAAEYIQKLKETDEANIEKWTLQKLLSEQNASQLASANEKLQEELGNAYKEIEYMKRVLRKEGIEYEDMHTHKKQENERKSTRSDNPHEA
Technique: protein-binding microarray
Molecule type: double-stranded DNA, one strand shown
Medium: in vitro
Tested at: 0.8 µM
Notes: whole 60-bp probe, no competitor
Reading: higher = stronger binding
Measurement: fluorescence intensity
All sequences stand within: … GTCTTGATTCGCTTGACGCTGCTG
GAATAGAACTCGCCTTACGTGCTCTACATTCGTTAG: 491 a.u.
GAACGAGTTCGTGATTACATCAGGCATATACAATAG: 625 a.u.
CTAAGAAAATCCAATCACGGTGTGACTGGTATCTTC: 758 a.u.
CTATTCCTCTTTTAGCTCGTCAGCTCTGGTTGGTTC: 516 a.u.
CTAAGAGCAGAAAGATACATCAGAACAATAGTATTC: 520 a.u.
CTAAGTCACCTATTTCCCGTGCTTTTCGCATTCTTC: 558 a.u.
CTAGCGGGTTGAATCCACGTTAACGTTCCACTATTC: 513 a.u.
GAAGACGTTTAGAGTGACGTGAATCACTGTTAATAG: 508 a.u.
CTAAAAAAAGCAGGGCACATGTCAAACTCTTGGTTC: 829 a.u.
TGTACGAAGCTATTCCGTGCGCATATAGTAGTTAGG: 497 a.u.
GAACAGTAAGGAGGTAACATCAGGTCCGTGGATTAG: 504 a.u.
CTATCCTTTCTCTTCTACGTCACAGTACATCTCTTC: 673 a.u.
GAAGGTTCTCTGGAACAGCTGATGTCCCAGGTGTAG: 711 a.u.
TGTACGAAGCTATTACACGTTTGTATAGTAGTTAGG: 545 a.u.
GAATCACTACTTCATCAGATGAGGAGGGGAGGGTAG: 508 a.u.
CTAATGGGCACTTGTCACATGTTAATGAAGTCATTC: 2600 a.u.
GAATAACAGGCGTGTCACCAATGATTAATGGCGTAG: 563 a.u.
CTATGAATTCTTATACATGTGACTAACCGATATTTC: 4180 a.u.
GAAAACCGTCCAATATTCGTGATTGATCTTCGATAG: 566 a.u.
CTAGCGCGTGAACATCACGACGCGCCTTCCCGTTTC: 589 a.u.

Sample 3
Target: RNA binding protein fox-1 homolog 2, RRM domain, GST-SBP tag (RBFOX2, Homo sapiens, UniProt O43251-10, residues 100-194)
Technique: RNA Bind-n-Seq
Molecule type: RNA
Medium: in vitro
Tested at: 365 nM
Notes: natural RNA segment, single round, ends assumed
Baseline: no-protein control
Reading: higher = stronger binding
Measurement: RBNS enrichment (R)
All sequences stand within: GGGAGUUCUACAGUCCGACGAUC … UGGAAUUCUCGGGUGCCAA
Construct (chain): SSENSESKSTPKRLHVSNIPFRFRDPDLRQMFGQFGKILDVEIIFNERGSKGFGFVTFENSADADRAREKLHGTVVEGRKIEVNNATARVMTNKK
AAGACUGAGUGUUCAAACUACUGUACAUUUUUUUUCAAGUGCUAAAAAAUUAAACCAAGCAGCUUAACCAUGGUUUGUGCCUGUUCCUCUAGGAUGAACUCCUAUCCUGA: 0.541
UGGUUUCCCUUGCGUAAUUGAUAAGCCCAGUUAUUCAGUAAUGUUUACAAAUUAAUUGACUUUGAUAGUUAAAAGAUUAUGAGGUAACCCAUCUGCAAUUUGCCUGUGGG: 0.464
CCAAAUCCAAAAGAACACAUAGCUGUAACACAGCUGUAGUUGACUAGAAUGCUCUGUAUACUUUAUAUUAAAAAAUGCUUUGCAUUUCUUCCAGUGCAAUGAAAUUCAUA: 0.552
UGCUCUCUGUGCUCUGUGGUGGCUUCCAUGCACUGCUGUGGCCAUGGAGACCCAGCUCCUUGCACGGUAGCCCAGCUUUUGCCCAGACCAGUGGCCAGAUUUGGCAUCAC: 0.384
ACUUUCAAAAAGAAUCAUCAUUGAUUAUUCUUGUUUCACAUCUGAGGAUGAAGGCUAACGGCUGUGCUUGCCCUGGUUACUGGAUGGGAUUCUCUGCUGGGCGGGUGGGG: 0.426
ACUUUCAGAUUCCUGUGGAAUUGUGAAUUCAUACUAAGCUUUCUGUGCAGUCUCACCAUUUGCAUCACUGAGGAUGAAACUGACUUUUGUCUUUUGGAGAAAAAAAACUG: 0.412
GCUAUUUGCCUGGCUCCAGCAGAUGAUGAGAUAAUGAGGUAGUGGGUUUUUUAUUACUGUUCCAUUUUGCAACAUCCUGCAACACCAUCCUGGGAGACAAGAGCAUUACC: 0.492
GCCACCAUCCCCUAGAAGUCCUGUCCUCUUCACCCUGCCCUACCUGAGCCGCUGACUCUUCUGGCAAAAAUUCUGUUGGGAUUUAAGGCCAAGGGUCAGUGGGUGGCAGG: 0.331
UGCUUUAUAUUUGUAUAUACAUUUUACCUUUUAUACAGAUGUCCGAUUGUUGUCAUUUGGCUCUGCAGCUUGUUUUGUCGUCUGUGUCUGUCUGAGGAACCUGUGUGUCC: 0.472
AUCUGGAUUUACUUGGUUUGCCGUUUUAAUUCCAGCCGGAUUGGUGUUCUUUAAACAAAAAGUAGGCAGGGAGCACUUCCAGGGCUUUGCAGGCUGUUUUUGUUUUUUUU: 0.365
GUGGUUACUUGAUUUUGAGGAAGAAAAUAUUCAGCUUUGUAUAAAGACUAGGUAUCAGAUUCCUUUUGCAGUGGGAGGUGUAUAUAUCGUAUUUUGGUAUAGAGUAGGAC: 0.397
GGCGACCUUGAAGCAGUUCUCGGUGUGUAGAGUCCACGUGACAGUCCCCACAGCCUCCCCAGAUAGCUGUGUGCCUGUGCGCUACUGCUGUGCCAUUUUCCCAACUUGGC: 0.5

Sample 4
Target: Histone acetyltransferase KAT6A, winged helix 1, GST fusion (KAT6A, Homo sapiens, UniProt Q92794, residues 1-85)
Technique: protein binding microarray
Molecule type: double-stranded DNA, one strand shown
Medium: in vitro
Tested at: not given
Notes: 8-mer, flanks averaged, mean of 2 arrays, mostly near background
Baseline: not given
Reading: higher = stronger binding
Measurement: E-score
Residues (chain): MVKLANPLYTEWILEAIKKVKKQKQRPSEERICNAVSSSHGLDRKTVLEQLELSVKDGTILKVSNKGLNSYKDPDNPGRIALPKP
GGCGCGCA: 0.42
GCGTACAA: -0.0144
ATGAGAAC: -0.0462
CTAGCTGC: 0.0842
GACGAATC: -0.188
GCATGTGA: 0.0593
AACCCAAC: -0.387
ATCGAGTA: -0.0279
ATGATCTA: -0.149
CATTCCAC: 0.0688
GCGCCAAA: 0.23
GCAGACAC: -0.0433
GAATTCGA: -0.033
AAAAGGAG: -0.101
CACAGGGA: -0.0775
AGCTGACA: -0.0333

Excerpt of the above (sample 1):
AGUCCUGUGCUACACAUCGUAUGUACCGAAUCGGGGUUUGGGGUGGGGUUUUUGGGGAAAGUAUUAUGUUACGCCGUUCGGAUCUGCACU: 0.334
ACCAUGCAAAAGGGCAUCUUUGGGAAGUGGGGCAAGGGGGGGAUAGGGAGGGGGGUAACACUUUGGGAACAGGUGGUCCCAGGUCGUUUC: 1.06
UCAAGUCCUGUGCUACACAUCGUAUGUACCGAAUCGGAAAGGAGGUUUUUUUGGAAAGUAUUAUGUUACGCCGUUCGGAUCUGCACUUCC: -0.991
UCCUGUGCUACACAUCGUAUGUACCGAAUCGGGGAAAGGGGAAAAAGGGGAAAAAGGGGAAAGUAUUAUGUUACGCCGUUCGGAUCUGCA: 0.596
GUCCUGUGCUACACAUCGUAUGUACCGAAUCGGCCCCCGGGCCCCCGGGCCCCCGGGGAAAGUAUUAUGUUACGCCGUUCGGAUCUGCAC: -0.823
GCAGGAAGUAAAAACAAAUGGAAAUGCUUCGGAUAGUGGCACGGGUGGGGGUUGCUAAGGAAAGGGUGGGAUGGGAGUGGGUAAAGAGUU: 0.867
ACCAUGAAGGUGGGCAUCUUUGGGAAGUGGGGCAAGGGGGGGAUAGGGAGGGGGGUAACACUUUGGGAACAGGUGGUCCCAGGUCGUUUC: 1.27
CCUCAAGUCCUGUGCUACACAUCGUAUGUACCGAAUCGGCGGCGGGGCGGGGAAAGUAUUAUGUUACGCCGUUCGGAUCUGCACUUCCAG: 0.378
GCAGGAAGUAAAAACAAAUGGAAAUGCUUCGGAUAGUGGCAGGGGUGGGGGUUGCUAGGGAAAGGGUGGGAUGGGAGUGGGUAAAGAGUU: 1
